Measurements pooled from the literature.
A part holds a random share of what one study measured. Positions count from the first letter of the parent shown.

Sample 1
Target: Interferon regulatory factor 5, full length, phosphomimetic (IRF5, Homo sapiens, UniProt Q13568-2, residues 1-514, K96S/S451D/S453D/S456D/S462D)
Method: protein-binding microarray
Molecule type: double-stranded DNA, one strand shown
Sample: in vitro
Concentration: 250 nM
Notes: 60-bp whole probe
Added: salmon DNA 0.4 mg/ml
Reference: random background probes
Reading: higher = stronger binding
Constant ends, left off below: GCCTAGCAC … GTCTTGATTCGCTTGACGCTGCTG
| Oligonucleotide | log fluorescence |
| --- | --- |
| GACGGTATCGGTCTCGGGATGTGCTAG | 5.54 z-score |
| GACGGTTTCCTTTCCCAGACGTGCTAG | 0.841 z-score |
| TCAATCCTATATCTGAAACTGTGCTAG | 0.762 z-score |
| TCACATATGCTTTTTAGACTGTGCTAG | 0.446 z-score |
| TCAGGTATCCTTTTCCTTTAGTGCTAG | 0.449 z-score |
| GACGGACTCGACTATCGGGACGTGCTA | 0.905 z-score |
| CCAGGCTGAAAGACCTCTGAGTGCTAG | -0.263 z-score |
| GACGGTATCGTGTTTCGGGACGTGCTA | 2.93 z-score |
| TCATTCTCCTATTTAAGACTGTGCTAG | 0.692 z-score |
| TCATCTCTGGCCCTCCTACTGTGCTAG | -0.284 z-score |
| TCACTTTCCACTTGTCTTTTCGTGCTA | 2.52 z-score |
| TTAGGTACCCTTCTCCTTTAGTGCTAG | 0.0724 z-score |
| TTAGGAATCGGGACTGGGTTAGTGCTA | -0.16 z-score |
| TAAGATATCAGTTTCGATTAGTGCTAG | 9.86 z-score |
| GACGAGCTCAGACTGGAGACGTGCTAG | -0.614 z-score |
| GACGATATCAGACTGCAGACGTGCTAG | 0.527 z-score |
| CTTCCCCTCTAGGTTCTCTGAGTGCTA | 0.0877 z-score |
| GACGGACTGCTTATTCTGACGTGCTAG | -0.298 z-score |
| GACGGTCTGCTTATCCTGACGTGCTAG | -0.234 z-score |

Sample 2
Target: Phosphate system positive regulatory protein PHO4, full length, GST-tagged (PHO4, Saccharomyces cerevisiae, UniProt P07270, residues 1-312)
Method: competition protein-binding microarray
Molecule type: double-stranded DNA, one strand shown
Sample: in vitro
Concentration: 2 µM
Notes: whole 60-bp probe, lowest competitor level
Added: Cbf1 competitor, 0.05 µM
Reading: higher = stronger binding
Constant ends, left off below: … GTCTTGATTCGCTTGACGCTGCTG
Residues (chain): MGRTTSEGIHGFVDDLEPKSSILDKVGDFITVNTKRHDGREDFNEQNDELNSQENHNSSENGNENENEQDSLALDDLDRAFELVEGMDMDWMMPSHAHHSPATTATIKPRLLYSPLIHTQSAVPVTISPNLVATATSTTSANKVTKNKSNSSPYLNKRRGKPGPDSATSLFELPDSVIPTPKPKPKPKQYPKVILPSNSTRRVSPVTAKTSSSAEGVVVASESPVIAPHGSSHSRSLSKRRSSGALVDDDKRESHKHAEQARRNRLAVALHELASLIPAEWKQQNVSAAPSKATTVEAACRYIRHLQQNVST
| Oligonucleotide | fluorescence intensity |
| --- | --- |
| CGCTCGTCTTGGTGGCATGCGCTTTTTTTTTCTTGG | 7900 a.u. |
| TCAACACTGTACTGTCACATGCTAATAAAGATAACA | 11500 a.u. |
| GACCAGCCGCACCGTCACGTGACGGTATACGATCCT | 13200 a.u. |
| AAATTACTAAGTTGTCTCGTGGGTGACGCCGTATGA | 9420 a.u. |
| CGTCCTAGTGATTGCTAAGTGGGTGCCATGAGGAAG | 6710 a.u. |
| GTCTTGTCTCATTGTCACGTTACTTTCCCCACTTCA | 7510 a.u. |
| TGCGCAACAACTTTTCACGTGCGTTTATGTCTAGAA | 16100 a.u. |
| CTTCTGTAAATTTTTCACGTGTGGTGAAGCGCCCCG | 12200 a.u. |
| CTAACGAAGGTTTGTTTCGTGGGTGACAAGCCAAGT | 4650 a.u. |
| CATACCCAACCTTGCTGCGTGGGTGAAGATATTTGT | 9780 a.u. |
| AAATTACTAAGTTGATGAGTGGGTGACGCCGTATGA | 4240 a.u. |
| CTAACGAAGGTTTTTCACGTGTCTTACAAGCCAAGT | 13400 a.u. |
| CTAACGAAGGTTTGTACTGTGGGTGACAAGCCAAGT | 3570 a.u. |

Sample 3
Target: CCNF, cyclin fold, Cln2 fusion (human)
Method: yeast growth competition, sequencing
Sample: yeast
Notes: strong parent motif
Reference: not given
Reading: higher = stronger binding
Starting sequence: PPP1R3F docking peptide (human); VAPRRVLFADEAL
| Variant | normalised enrichment score |
| --- | --- |
| VAPRAVLFADEAL [R5A] | 1.25 |
| VAPRKVLLADEAL [R5K F8L] | 0.342 |
| VAPRRVLFAAEAL [D10A] | 6 |
| VAPRRALFADEAL [V6A] | 5.82 |
| VAPRRVLAADEAL [F8A] | -0.0214 |
| VAPRRVLFADAAL [E11A] | 5.93 |

Mixed results
| Molecule | target | test | test system | conditions | scale | endpoint | result |
| --- | --- | --- | --- | --- | --- | --- | --- |
| PhoQ, residues 284 288 289 292 302 303 NSMLDC | PhoP, residues 12 14 15 18 19 TTLRV (Escherichia coli, UniProt P23836) | Sort-seq, refers to: YFP reporter | E. coli | PhoQ-PhoP variant library, added: 10 µM Mg2+ | reference: high Mg2+ state, higher = stronger signaling | fold induction | 7.41 |

Excerpt of the above (sample 1):
| Oligonucleotide | log fluorescence |
| --- | --- |
| GACGGACTCGACTATCGGGACGTGCTA | 0.905 z-score |
| TCAGGTATCCTTTTCCTTTAGTGCTAG | 0.449 z-score |
| GACGGTATCGTGTTTCGGGACGTGCTA | 2.93 z-score |
| TCATCTCTGGCCCTCCTACTGTGCTAG | -0.284 z-score |
| GACGATATCAGACTGCAGACGTGCTAG | 0.527 z-score |
| TCACATATGCTTTTTAGACTGTGCTAG | 0.446 z-score |
